Results pooled from the literature.
Compare with care: the assays were run in different laboratories.
B1: UGT1A9 (Homo sapiens, UniProt O60656); chain GKLLVVPMDGSHWFTMRSVVEKLILRGHEVVVVMPEVSWQLGRSLNCTVKTYSTSYTLEDLDREFKAFAHAQWKAQVRSIYSLLMGSYNDIFDLFFSNCRSLFKDKKLVEYLKESSFDAVFLDPFDNCGLIVAKYFSLPSVVFARGILCHYLEEGAQCPAPLSYVPRILLGFSDAMTFKERVRNHIMHLEEHLLCHRFFKNALEIASEILQTPVTEYDLYSHTSIWLLRTDFVLDYPKPVMPNMIFIGGINCHQGKPLPMEFEAYINASGEHGIVVFSLGSMVSEIPEKKAMAIADALGKIPQTVLWRYTGTRPSNLANNTILVKWLPQNDLLGHPMTRAFITHAGSHGVYESICNGVPMVMMPLFGDQMDNAKRMETKGAGVTLNVLEMTSEDLENALKAVINDKSYKENIMRLSSLHKDRPVEPLDLAVFWVEFVMRHKGAPHLRPAAHDLTWYQYHSLDVIGFLLAVVLTVAFITFKCCAYGYRKCLGKKGRVKKAHKSKTH
B2: IGFL3 24-125 (Homo sapiens, UniProt Q6UXB1); chain GTTDAPVGSGLWLCQPTPRCGNKIYNPSEQCCYDDAILSLKETRRCGSTCTFWPCFELCCPESFGPQQKFLVKLRVLGMKSQCHLSPISRSCTRNRRHVLYP
UniProt P46059, sequence (whole entry, looked up): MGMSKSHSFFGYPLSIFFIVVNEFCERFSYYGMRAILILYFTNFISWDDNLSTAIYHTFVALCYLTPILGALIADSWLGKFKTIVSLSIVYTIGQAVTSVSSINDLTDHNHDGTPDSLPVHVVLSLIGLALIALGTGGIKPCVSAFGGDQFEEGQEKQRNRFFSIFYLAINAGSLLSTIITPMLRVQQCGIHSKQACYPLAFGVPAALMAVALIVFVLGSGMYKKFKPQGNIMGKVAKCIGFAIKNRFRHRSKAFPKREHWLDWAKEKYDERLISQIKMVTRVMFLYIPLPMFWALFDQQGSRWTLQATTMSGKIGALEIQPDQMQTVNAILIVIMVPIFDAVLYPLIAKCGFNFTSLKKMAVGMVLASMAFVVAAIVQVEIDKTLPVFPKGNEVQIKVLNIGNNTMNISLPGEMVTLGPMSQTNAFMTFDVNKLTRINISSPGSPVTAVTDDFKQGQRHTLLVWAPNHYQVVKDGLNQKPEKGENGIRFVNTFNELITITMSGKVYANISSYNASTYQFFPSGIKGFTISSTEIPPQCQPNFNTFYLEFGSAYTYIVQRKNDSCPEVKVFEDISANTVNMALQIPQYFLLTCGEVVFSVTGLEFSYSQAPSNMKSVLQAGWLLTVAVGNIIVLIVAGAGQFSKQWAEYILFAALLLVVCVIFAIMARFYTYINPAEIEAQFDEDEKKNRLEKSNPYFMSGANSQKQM
UniProt P00167, sequence (whole entry, unmodified, looked up): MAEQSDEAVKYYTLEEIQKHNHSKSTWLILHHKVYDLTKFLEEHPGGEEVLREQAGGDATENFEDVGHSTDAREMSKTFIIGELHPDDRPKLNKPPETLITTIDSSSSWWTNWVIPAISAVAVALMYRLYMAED
UniProt P01024, sequence (whole entry, looked up): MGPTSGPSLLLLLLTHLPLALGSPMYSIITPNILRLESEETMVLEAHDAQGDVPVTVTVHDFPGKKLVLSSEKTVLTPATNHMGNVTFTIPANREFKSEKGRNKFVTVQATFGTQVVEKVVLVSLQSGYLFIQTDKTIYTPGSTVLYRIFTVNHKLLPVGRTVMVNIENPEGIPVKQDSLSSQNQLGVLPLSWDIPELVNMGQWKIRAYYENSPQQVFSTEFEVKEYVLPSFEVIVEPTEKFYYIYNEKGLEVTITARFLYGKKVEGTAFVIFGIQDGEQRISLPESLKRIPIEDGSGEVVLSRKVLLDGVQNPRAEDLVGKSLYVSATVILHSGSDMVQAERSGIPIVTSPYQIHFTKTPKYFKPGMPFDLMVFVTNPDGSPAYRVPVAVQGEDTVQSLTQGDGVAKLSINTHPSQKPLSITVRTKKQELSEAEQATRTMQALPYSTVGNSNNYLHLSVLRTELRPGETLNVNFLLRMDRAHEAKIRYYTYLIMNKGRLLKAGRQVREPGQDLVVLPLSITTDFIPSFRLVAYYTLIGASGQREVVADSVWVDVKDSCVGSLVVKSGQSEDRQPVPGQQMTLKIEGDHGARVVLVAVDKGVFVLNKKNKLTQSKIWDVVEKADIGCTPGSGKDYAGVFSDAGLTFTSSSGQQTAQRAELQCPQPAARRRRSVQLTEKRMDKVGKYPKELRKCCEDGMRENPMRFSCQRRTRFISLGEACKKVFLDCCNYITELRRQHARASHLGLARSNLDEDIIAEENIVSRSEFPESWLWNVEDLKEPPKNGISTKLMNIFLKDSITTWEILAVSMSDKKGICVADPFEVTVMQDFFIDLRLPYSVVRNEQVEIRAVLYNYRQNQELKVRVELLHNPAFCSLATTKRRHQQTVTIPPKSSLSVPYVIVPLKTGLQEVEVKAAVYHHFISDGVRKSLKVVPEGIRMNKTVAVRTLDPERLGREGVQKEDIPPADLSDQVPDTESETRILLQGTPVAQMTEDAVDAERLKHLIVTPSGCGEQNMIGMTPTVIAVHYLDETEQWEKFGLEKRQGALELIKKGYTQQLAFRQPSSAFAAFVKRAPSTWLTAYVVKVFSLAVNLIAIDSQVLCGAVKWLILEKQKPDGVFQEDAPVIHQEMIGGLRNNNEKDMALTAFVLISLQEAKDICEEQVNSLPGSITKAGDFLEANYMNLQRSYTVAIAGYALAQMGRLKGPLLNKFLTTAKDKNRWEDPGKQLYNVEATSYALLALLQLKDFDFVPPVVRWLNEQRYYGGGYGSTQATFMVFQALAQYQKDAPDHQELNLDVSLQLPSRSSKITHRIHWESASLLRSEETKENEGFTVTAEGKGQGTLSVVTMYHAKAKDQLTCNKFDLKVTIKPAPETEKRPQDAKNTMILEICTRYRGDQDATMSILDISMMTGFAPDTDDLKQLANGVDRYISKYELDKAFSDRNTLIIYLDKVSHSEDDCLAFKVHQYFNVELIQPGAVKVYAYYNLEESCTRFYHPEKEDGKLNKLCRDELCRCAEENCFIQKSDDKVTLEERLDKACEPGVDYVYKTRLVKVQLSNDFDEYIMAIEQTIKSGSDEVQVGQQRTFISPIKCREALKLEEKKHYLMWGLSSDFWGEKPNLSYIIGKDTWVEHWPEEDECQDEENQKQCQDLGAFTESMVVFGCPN
UniProt P00004, sequence (whole entry, looked up): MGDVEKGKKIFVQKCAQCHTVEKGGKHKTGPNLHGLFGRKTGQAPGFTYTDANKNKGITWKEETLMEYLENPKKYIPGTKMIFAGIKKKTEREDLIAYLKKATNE
UniProt P29375, sequence (whole entry, looked up): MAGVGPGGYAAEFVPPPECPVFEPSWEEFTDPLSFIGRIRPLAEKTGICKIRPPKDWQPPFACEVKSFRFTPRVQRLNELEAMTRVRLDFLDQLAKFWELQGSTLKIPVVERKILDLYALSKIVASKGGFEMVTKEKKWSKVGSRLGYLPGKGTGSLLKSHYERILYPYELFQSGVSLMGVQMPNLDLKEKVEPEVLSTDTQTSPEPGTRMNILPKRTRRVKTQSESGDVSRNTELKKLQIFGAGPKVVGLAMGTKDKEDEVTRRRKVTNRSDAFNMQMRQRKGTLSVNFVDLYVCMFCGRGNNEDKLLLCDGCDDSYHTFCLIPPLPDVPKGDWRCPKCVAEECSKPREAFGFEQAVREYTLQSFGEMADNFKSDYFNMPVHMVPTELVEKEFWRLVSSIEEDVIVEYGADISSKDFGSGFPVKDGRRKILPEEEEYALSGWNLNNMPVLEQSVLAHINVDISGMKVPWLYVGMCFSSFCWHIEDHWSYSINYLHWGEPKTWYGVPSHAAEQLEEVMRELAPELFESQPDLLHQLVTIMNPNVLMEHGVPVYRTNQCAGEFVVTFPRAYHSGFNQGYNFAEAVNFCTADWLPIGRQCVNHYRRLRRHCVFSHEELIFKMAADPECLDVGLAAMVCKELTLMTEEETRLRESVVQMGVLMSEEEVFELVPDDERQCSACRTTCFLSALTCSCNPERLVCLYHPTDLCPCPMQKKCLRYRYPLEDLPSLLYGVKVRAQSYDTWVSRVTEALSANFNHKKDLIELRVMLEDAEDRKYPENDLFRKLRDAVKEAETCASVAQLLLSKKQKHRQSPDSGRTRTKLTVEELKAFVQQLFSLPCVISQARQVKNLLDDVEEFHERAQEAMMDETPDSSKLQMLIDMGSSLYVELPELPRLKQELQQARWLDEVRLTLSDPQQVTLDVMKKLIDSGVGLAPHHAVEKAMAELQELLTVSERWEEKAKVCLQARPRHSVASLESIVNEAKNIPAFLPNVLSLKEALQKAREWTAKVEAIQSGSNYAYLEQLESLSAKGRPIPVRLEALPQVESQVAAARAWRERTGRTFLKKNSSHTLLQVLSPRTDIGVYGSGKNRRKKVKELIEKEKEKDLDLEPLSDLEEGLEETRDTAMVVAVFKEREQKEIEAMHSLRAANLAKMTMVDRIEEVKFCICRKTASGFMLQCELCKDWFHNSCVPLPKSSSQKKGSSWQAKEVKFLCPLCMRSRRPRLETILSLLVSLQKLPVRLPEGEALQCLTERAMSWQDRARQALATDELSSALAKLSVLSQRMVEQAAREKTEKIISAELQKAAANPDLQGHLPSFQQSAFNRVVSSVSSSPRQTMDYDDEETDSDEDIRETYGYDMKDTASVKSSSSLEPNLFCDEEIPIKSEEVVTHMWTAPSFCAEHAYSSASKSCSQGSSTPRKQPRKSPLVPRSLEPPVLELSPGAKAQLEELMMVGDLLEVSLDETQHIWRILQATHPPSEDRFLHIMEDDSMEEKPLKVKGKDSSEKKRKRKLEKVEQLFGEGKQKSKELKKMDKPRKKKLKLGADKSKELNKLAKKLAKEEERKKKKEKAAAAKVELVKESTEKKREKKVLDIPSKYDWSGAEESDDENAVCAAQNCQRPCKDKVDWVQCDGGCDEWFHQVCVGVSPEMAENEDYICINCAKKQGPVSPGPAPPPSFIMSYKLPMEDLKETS
UniProt P01138, sequence (whole entry, looked up): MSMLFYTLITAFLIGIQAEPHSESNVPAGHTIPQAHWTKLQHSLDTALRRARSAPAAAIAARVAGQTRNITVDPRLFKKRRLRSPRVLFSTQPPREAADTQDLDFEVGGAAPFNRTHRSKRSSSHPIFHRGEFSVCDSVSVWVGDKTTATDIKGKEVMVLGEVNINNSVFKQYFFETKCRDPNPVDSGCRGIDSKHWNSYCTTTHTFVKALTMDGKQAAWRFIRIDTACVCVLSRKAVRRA
UniProt P48431, sequence (whole entry, looked up): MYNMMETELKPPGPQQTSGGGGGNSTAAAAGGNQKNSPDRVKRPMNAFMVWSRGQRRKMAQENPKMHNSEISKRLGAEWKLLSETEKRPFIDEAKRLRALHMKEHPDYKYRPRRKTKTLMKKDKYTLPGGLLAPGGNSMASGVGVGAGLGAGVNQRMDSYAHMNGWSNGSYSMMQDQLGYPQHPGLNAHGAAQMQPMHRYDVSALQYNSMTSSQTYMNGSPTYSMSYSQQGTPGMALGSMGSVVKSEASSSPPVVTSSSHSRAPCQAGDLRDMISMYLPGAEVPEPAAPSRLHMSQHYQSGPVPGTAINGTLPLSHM

Substance	tested on	assay	test system	conditions	scale	quantity	value
PAM18 (Saccharomyces cerevisiae, UniProt Q07914)	SSC1 V459F (Saccharomyces cerevisiae)	ATPase activity, activator		single turnover	relative to: basal rate, higher = more stimulation	fold stimulation of ATPase	8 fold
Ser-Glu dipeptide, nanoparticle-coupled	SLC15A1 (Homo sapiens, UniProt P46059)	flow cytometry	AsPC-1	6 µg/mL, 12 hours h	relative to: unconjugated NPs, higher = more uptake	relative cell fluorescence	11.3 fold
ARTKQTARKS (Histone H3.1 2-11 (Homo sapiens, UniProt P68431); sequence looked up)	KDM5A 287-347 (Homo sapiens, UniProt P29375)	competition with labeled peptide, fluorescence polarisation	peptide	with: H3 peptide		Ki	820 nM
NGF mature (Homo sapiens, UniProt P01138)	NTRK1 extracellular and transmembrane domains (Homo sapiens)	FRET		380 nM	relative to: without ligand, higher = more stable dimer	dimer stability change	-2.63 kcal/mol
Prickle2 (Mus musculus, UniProt Q80Y24)	Vangl2 (Mus musculus, UniProt Q91ZD4)	co-IP	HEK293T	0.2 µg	relative to: control, higher = more E-cadherin	E-cadherin coprecipitated	0.75 a.u.
C3a (Homo sapiens, UniProt P01024)	C3AR1 (Homo sapiens, UniProt Q16581)	PWV shift, agonist, label-free photonic crystal biosensor	RBL-2H3, DMEM + 10% FBS	up to 100 nM	higher = larger response	maximal PWV shift	270 pm
B1 (UGT1A9)	O=c1cc(-c2ccc(O)c(O)c2)oc2cc(O)cc(O)c12	steady-state kinetics		pH 7.4, 37 °C		Vmax	0.0007 µmol/min/mg
RAG2 (Homo sapiens, UniProt P55895)	RAG1 (Homo sapiens, UniProt P15918)	live-cell microscopy	293T-CJ		higher = more cells with puncta	cells with puncta	13%
PAX6 fragment (Homo sapiens)	SOX2 1-117 (Homo sapiens, UniProt P48431)	EET assay		with: DNA2 1.25 µM	relative to: Sox2 alone, higher = more cleavage	DNA cleavage	82.5%
CYB5A holo (Homo sapiens, UniProt P00167)	CYP3A4 N-terminally truncated K421A (Homo sapiens, UniProt P08684)	testosterone 6β-hydroxylation		with: CPR	relative to: without b5, higher = greater b5 stimulation	catalytic efficiency ratio	1.7
B2 (IGFL3 24-125)	IGFLR1 23-159 (Homo sapiens, UniProt Q9H665)	SPR		pH 7.4, 25 °C, NaCl 0.15 M		koff	9.31e-05 s⁻¹
ELANE (Homo sapiens, UniProt P08246)	F2RL1 (Homo sapiens, UniProt P55085)	impedance response	16HBE14o−			EC50	300 nM
CYCS (horse, UniProt P00004)	CcP, two covalent hemes (Shewanella oneidensis)	steady-state kinetics		oxidized, tag-free, with: electron donor 4 µM		peroxide turnover rate k1	0.28 s⁻¹

Excerpt of the above:
Substance	tested on	assay	test system	conditions	scale	quantity	value
Prickle2 (Mus musculus, UniProt Q80Y24)	Vangl2 (Mus musculus, UniProt Q91ZD4)	co-IP	HEK293T	0.2 µg	relative to: control, higher = more E-cadherin	E-cadherin coprecipitated	0.75 a.u.
